Measurements collected from several papers.
Each line is one published result; not all experiments were run side by side. “And” joins repeats or separate records; there may be more than shown. ± gives the spread as reported.
Tumor necrosis factor receptor superfamily member 9/Nectin-4: Tumor necrosis factor receptor superfamily member 9/Nectin-4 (Homo sapiens, UniProt Q07011+Q96NY8)
UniProt Q96NY8, sequence (whole entry, looked up): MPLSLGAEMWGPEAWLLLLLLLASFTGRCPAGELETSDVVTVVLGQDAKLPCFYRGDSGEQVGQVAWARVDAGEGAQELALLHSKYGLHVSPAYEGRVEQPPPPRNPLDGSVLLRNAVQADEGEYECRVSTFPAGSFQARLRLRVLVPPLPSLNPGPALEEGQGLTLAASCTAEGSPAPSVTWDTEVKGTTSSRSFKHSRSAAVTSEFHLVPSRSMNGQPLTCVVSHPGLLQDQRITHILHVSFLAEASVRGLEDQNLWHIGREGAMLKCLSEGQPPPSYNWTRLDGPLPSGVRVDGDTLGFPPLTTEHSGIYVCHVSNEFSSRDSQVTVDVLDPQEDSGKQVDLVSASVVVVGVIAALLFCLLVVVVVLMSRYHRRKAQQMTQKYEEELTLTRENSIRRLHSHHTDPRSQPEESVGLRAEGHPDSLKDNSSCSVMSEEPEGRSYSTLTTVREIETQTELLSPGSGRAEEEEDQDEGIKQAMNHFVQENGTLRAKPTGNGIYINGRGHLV
UniProt Q07011, sequence (whole entry, looked up): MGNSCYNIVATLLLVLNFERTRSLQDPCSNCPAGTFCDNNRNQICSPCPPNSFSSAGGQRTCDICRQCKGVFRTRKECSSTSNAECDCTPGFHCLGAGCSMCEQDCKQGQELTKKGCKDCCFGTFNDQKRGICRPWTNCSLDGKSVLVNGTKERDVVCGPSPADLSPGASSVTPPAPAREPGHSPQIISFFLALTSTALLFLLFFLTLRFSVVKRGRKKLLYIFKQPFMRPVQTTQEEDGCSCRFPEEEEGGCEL
CSNK1A1/CRBN: Cereblon/Casein kinase I alpha (CSNK1A1/CRBN, Homo sapiens, UniProt P48729+Q96SW2)
UniProt P48729, sequence (whole entry, looked up): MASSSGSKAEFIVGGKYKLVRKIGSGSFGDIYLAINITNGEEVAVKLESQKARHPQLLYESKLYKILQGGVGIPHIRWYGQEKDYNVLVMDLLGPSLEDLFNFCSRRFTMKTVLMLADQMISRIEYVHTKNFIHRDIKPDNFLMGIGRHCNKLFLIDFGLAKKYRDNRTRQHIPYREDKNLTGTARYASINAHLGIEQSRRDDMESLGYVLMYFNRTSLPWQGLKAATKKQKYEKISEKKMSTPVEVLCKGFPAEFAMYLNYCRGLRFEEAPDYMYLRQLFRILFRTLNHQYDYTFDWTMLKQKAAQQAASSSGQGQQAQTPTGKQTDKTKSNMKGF
UniProt Q96SW2, sequence (whole entry, looked up): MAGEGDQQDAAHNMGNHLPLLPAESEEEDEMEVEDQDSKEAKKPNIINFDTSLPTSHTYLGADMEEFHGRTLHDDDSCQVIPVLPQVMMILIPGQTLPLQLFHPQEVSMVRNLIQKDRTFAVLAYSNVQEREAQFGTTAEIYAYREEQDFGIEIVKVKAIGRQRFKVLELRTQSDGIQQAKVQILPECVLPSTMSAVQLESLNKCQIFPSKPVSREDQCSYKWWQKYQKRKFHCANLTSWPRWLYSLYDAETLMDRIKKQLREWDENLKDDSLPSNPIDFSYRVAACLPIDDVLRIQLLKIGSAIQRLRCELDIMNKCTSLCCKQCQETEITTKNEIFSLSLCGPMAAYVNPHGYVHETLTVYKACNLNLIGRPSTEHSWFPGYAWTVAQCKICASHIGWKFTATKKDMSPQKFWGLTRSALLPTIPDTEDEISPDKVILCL
NR4A1: Nuclear receptor subfamily 4 group A member 1 (NR4A1, Homo sapiens, UniProt P22736)
UniProt P22736, sequence (whole entry, looked up): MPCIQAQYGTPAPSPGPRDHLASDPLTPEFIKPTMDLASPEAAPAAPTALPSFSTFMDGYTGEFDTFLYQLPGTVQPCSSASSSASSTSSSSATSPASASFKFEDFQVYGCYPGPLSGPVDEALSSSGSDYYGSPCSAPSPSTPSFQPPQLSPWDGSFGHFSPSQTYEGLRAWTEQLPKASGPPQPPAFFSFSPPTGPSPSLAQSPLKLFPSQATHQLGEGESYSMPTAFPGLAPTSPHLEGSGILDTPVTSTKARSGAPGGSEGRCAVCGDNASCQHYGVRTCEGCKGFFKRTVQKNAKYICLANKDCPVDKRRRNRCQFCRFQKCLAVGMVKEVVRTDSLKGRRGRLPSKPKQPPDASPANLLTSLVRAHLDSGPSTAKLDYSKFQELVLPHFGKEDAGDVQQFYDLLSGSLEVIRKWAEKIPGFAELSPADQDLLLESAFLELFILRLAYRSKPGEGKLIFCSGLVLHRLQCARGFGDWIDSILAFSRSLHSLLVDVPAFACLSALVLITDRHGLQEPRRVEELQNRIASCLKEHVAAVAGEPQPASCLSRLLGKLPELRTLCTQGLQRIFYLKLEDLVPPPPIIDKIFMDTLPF
T1: RNA, 2'-deoxy at 37-40 (Fusobacterium nucleatum); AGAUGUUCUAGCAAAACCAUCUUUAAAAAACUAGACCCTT
T2: ssDNA, aptamer; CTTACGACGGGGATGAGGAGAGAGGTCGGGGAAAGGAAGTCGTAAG
T3: ssDNA, aptamer; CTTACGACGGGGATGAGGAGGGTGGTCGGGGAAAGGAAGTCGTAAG
UniProt O76090, sequence (whole entry, unmodified, looked up): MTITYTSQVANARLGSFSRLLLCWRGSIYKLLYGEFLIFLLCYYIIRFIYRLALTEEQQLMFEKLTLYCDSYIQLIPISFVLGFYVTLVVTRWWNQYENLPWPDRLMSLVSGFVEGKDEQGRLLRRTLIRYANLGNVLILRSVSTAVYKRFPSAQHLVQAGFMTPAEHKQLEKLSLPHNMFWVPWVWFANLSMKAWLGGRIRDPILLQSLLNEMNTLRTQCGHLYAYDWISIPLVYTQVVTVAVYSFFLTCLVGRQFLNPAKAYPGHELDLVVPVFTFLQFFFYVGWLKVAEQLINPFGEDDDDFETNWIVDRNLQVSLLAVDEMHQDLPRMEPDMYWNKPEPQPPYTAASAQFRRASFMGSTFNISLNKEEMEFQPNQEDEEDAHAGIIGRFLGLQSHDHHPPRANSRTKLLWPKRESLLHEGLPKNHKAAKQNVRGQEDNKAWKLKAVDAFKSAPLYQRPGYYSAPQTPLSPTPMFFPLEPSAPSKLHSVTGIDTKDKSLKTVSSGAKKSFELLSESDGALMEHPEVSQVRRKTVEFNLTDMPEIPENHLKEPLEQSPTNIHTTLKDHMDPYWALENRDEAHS
UniProt Q16853, sequence (whole entry, looked up): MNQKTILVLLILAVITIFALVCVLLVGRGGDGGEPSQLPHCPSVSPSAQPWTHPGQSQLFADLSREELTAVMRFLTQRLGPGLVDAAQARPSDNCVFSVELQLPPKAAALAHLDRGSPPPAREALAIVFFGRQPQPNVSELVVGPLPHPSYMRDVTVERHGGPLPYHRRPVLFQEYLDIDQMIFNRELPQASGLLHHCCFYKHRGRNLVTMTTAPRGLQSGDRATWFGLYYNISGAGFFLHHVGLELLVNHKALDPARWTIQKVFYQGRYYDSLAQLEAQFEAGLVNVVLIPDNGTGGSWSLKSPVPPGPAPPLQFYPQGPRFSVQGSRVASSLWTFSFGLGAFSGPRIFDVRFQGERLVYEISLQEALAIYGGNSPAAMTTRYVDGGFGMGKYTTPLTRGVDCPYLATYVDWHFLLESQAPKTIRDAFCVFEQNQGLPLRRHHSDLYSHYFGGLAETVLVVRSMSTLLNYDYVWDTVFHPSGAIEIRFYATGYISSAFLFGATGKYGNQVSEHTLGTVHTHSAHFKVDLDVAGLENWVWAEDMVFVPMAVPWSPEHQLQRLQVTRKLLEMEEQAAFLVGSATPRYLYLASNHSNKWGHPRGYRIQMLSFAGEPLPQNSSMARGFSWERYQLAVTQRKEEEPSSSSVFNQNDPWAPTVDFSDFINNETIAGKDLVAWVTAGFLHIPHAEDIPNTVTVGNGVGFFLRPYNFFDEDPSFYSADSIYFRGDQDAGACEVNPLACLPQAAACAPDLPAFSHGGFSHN
UniProt P47898, sequence (whole entry, looked up): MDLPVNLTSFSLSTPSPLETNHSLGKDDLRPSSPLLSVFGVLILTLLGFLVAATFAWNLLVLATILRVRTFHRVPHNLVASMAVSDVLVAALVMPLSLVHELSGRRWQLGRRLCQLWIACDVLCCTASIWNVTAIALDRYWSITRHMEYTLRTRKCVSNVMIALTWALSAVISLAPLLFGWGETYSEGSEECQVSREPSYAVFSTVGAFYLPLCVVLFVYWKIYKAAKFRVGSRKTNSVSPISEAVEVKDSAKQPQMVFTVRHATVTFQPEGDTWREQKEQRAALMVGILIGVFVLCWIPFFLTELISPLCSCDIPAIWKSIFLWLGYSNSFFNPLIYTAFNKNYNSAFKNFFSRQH
UniProt P51575, sequence (whole entry, unmodified, looked up): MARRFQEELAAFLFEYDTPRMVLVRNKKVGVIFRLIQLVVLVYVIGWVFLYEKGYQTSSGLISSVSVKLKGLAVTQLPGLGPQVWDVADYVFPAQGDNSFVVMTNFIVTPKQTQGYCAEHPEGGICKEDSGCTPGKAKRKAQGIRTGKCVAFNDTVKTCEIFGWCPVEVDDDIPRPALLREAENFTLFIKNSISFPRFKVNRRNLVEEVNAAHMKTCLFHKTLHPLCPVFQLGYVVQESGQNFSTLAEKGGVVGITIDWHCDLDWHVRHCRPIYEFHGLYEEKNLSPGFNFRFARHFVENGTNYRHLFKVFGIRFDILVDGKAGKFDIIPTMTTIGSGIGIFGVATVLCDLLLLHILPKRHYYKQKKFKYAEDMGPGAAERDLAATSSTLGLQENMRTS
UniProt Q16774, sequence (whole entry, unmodified, looked up): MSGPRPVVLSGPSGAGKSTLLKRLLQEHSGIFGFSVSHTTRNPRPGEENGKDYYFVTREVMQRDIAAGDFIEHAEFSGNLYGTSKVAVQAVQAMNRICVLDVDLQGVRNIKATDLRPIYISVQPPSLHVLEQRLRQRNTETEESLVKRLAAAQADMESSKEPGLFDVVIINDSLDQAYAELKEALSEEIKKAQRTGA
UniProt Q9KCC6, sequence (whole entry, looked up): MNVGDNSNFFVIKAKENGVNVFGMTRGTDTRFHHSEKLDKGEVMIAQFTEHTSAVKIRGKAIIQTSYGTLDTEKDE

SMILES	target	test	system	conditions	scale	measurement	value
CC(=O)Nc1nc2c(Oc3cc(-c4ccc(C(F)(F)F)cc4)ncn3)cccc2s1	Transient receptor potential cation channel subfamily V member 1 (TRPV1, Homo sapiens, UniProt Q8NER1)	BRET	HEK293T	10 µM	reference: capsaicin 500 nM	K+ pore BRET signal decrease	~30%
NCc1c[nH]c2nc(N)[nH]c(=O)c12	T1, RNA, 2'-deoxy at 37-40 (Fusobacterium nucleatum)	MST		apparent		Kd	0.36 µM
N#Cc1ccc2[nH]cc(CCCCN3CCN(c4ccc5oc(C(N)=O)cc5c4)CC3)c2c1	Sodium-dependent serotonin transporter (SLC6A4, Homo sapiens, UniProt P31645)	serotonin uptake, inhibitor	COS-7 expressing SLC6A4	60 min preincubation, with: [3H]5-HT		Hill slope	-1.66
CCN1CCC[C@H]1CNC(=O)c1c(O)c(Cl)cc(Cl)c1OC	Mas-related G-protein coupled receptor member X1 (MRGPRX1, Homo sapiens, UniProt Q96LB2)	β-arrestin recruitment, TANGO luminescence		concentration not given	reference: basal luminescence	log2 fold change	0.045
CCCC[C@@H]1NC(=O)[C@H](Cc2ccc(O)cc2)NC(=O)[C@H](C)N(C)C(=O)[C@H](CC(=O)O)NC(=O)[C@H](C)NC(=O)[C@H](Cc2ccccc2)NC(=O)[C@@H]2CSCCC(=O)N3CN(CN(C3)C(=O)CCSC[C@H](NC(C)=O)C(=O)N[C@@H](CC(C)(C)C)C(=O)N3CCC[C@H]3C(=O)N[C@@H](CCC(=O)O)C(=O)N[C@H](CCCCNC(=O)CCc3cn(CCOCCOCCOCCOCCOCCC(=O)N[C@H]4CSCCC(=O)N5CN6CN(C5)C(=O)CCSC[C@H](NC(=O)[C@@H](CC(=O)O)NC(=O)[C@H](Cc5cccc7ccccc57)NC(=O)[C@@H]5CCCN5C4=O)C(=O)N[C@@H](CCSC)C(=O)N[C@@H](CCCCNC(=N)N)C(=O)N[C@@H](CC(=O)O)C(=O)N[C@@H](Cc4c[nH]c5ccccc45)C(=O)N[C@@H](CO)C(=O)N[C@@H]([C@@H](C)O)C(=O)N4CCC[C@H]4C(=O)N4C[C@H](O)C[C@H]4C(=O)N[C@@H](Cc4c[nH]c5ccccc45)C(=O)N[C@H](C(N)=O)CSCCC6=O)nn3)C(=O)N3CCC[C@H]3C(=O)N[C@@H](Cc3ccc(O)cc3)C(=O)N2)C(=O)CCSC[C@@H](C(N)=O)NC1=O	Tumor necrosis factor receptor superfamily member 9/Nectin-4	reporter gene, agonist	HT-1376 coculture with reporter cells		reference: background	Emax	31 fold
Oc1ccc(/C=C/c2cc(O)cc(O)c2)cc1	O-methyltransferase (Sorghum bicolor, UniProt A0A1B6PFV1)			concentration not given, with: MTA+		ΔG of binding	-9.35 kcal/mol
CC1=C(/C=C/C(C)=C/C=C/C(C)=C/C=O)C(C)(C)CCC1	Rhodopsin (RHO, Bos taurus, UniProt P02699, G270A)	retinal release, Trp FRET	lipid bicelles	28 °C, G270A mutant	reference: wild-type rhodopsin	relative koff	1.83 ± 0.14
Nc1nc2c(ncn2[C@@H]2O[C@H](COP(=O)(O)O)[C@@H](O)[C@H]2O)c(=O)[nH]1	GUK1 (Homo sapiens, UniProt Q16774, D103A)	binding, ITC		with: GMP		-TΔS	3.1 kcal/mol
Nc1ncnc2c1ncn2[C@@H]1O[C@H](COP(=O)(O)O)[C@@H](O)[C@H]1O	T2, ssDNA, aptamer	ITC				Kd	105 µM
O=C(O)c1ccc(Nc2ncc3c(n2)-c2ccc(Cl)cc2C(c2c(F)cccc2F)=NC3)cc1	PrKX(h)	kinase activity		1 µM		remaining activity	99%
O=C1CCC(N2Cc3cc(NC(=O)c4cn5ccccc5n4)ccc3C2=O)C(=O)N1 (stereo not drawn)	CSNK1A1/CRBN	degrader, Western blot time-course	MOLT-4	1 µM		degradation time	< 3 h
c1coc(-c2n[nH]cc2-c2ccnc3ccccc23)c1	Serine/threonine-protein kinase SCH9 (SCH9, Candida albicans, UniProt Q5AHG6)	kinase binding, MIB/MS competition	Candida albicans lysate	1 µM	reference: DMSO, negative = stronger binding	log2 fold change	-0.26
COc1ccc(Cc2nnc(NS(=O)(=O)c3cccc4ccccc34)s2)cc1	Glutathione hydrolase 1 proenzyme, without transmembrane domain (Homo sapiens, UniProt P19440)	GSH hydrolysis, uncompetitive inhibitor		37 °C, binds gamma-glutamyl enzyme, with: GSH 5-20 µM		Kii	96 ± 2 µM
Nc1ccc(C(=O)O)cc1	BEST1, with wild-type BEST1 (Homo sapiens, UniProt O76090, A10T)	whole-cell patch clamp	HEK293 co-expressing WT and A10T mutant	concentration not given, membrane potential 0 mV		current density	-0.07 pA/pF and 0.04 pA/pF and 0.01 pA/pF and 0.03 pA/pF and 0.02 pA/pF and -0.03 pA/pF
Nc1ncnc2c1ncn2[C@@H]1O[C@H](CO)[C@@H](O)[C@H]1O	T3, ssDNA, aptamer	ITC				Kd	71 µM
O=c1nc(SCc2ccc(C(F)(F)F)cc2)nc(SCc2csc3ccc(Cl)cc23)[nH]1	DNA topoisomerase 2-alpha (TOP2A, Homo sapiens, UniProt P11388)	decatenation		0.12 µM		mean decatenated DNA	0%
NCCCS(=O)(=O)O	Sodium- and chloride-dependent taurine transporter (SLC6A6, Homo sapiens, UniProt P31641, G62A)	binding, microscale thermophoresis		61 nM, room temperature, with: 50 nM labelled protein	higher = more binding	normalised MST signal	0.0361
Nc1ncnc2c1ncn2[C@@H]1O[C@H](COP(=O)(O)CP(=O)(O)OP(=O)(O)O)[C@@H](O)[C@H]1O	P2X purinoceptor 1 (P2RX1, Homo sapiens, UniProt P51575, R139P)	calcium influx		10 µM	reference: ionomycin response	calcium influx	100%

SMILES	target	test	system	conditions	scale	measurement	value
N#Cc1ccc2c(-c3ccncc3)c(-c3ccc(F)cc3)nn2c1	Mitogen-activated protein kinase HOG1 (HOG1, Candida albicans, UniProt Q92207)	MIB/MS competition binding	Candida albicans cell lysate	100 nM	reference: DMSO, lower = stronger binding	log2 fold change	-0.195
O=C(O)[C@@H]1CCCN1c1ncnc2[nH]cnc12 (racemic)	ATP-dependent RNA helicase DDX1 (Homo sapiens, UniProt Q92499)	binding, affinity selection mass spectrometry			reference: other proteins in batch	fold enrichment	1.17
CC[C@@H]1[C@H](F)C(=O)N[C@@H]1COc1nccc2cc(C(N)=O)c(OC)cc12	Serine/threonine-protein kinase PRP4 homolog (PRPF4B, Homo sapiens, UniProt Q13523)	ATP-site probe binding, inhibitor, ActivX ATP probe profiling	THP-1 cell lysate	0.01 mM, other probe site		inhibition	11%
CCCC[C@@H]1NC(=O)[C@H](Cc2ccc(O)cc2)NC(=O)[C@@H]2CCCN2C(=O)[C@H](CC(=O)O)NC(=O)[C@H](C)NC(=O)[C@H](Cc2ccccc2)NC(=O)[C@@H]2CSCCC(=O)N3CN(CN(C3)C(=O)CCSC[C@@H](C(=O)N[C@@H](C)C(N)=O)NC1=O)C(=O)CCSC[C@H](NC(C)=O)C(=O)N[C@@H](CC(C)(C)C)C(=O)N1CCC[C@H]1C(=O)N[C@@H](CCC(=O)O)C(=O)N[C@H](CCCCNC(=O)CCc1cn(CCOCCOCCOCCOCCOCCC(=O)N[C@H]3CSCCC(=O)N4CN5CN(C4)C(=O)CCSC[C@H](NC(=O)[C@@H](CCC(=O)O)NC(=O)[C@H](Cc4cccc6ccccc46)NC(=O)[C@@H]4CCCN4C3=O)C(=O)N[C@@H](CC(C)C)C(=O)N[C@@H](CCCCNC(=N)N)C(=O)N[C@@H](CC(=O)O)C(=O)N[C@@H](Cc3c[nH]c4ccccc34)C(=O)N[C@@H](CO)C(=O)N[C@@H]([C@@H](C)O)C(=O)N3CCC[C@H]3C(=O)N3C[C@H](O)C[C@H]3C(=O)N[C@@H](Cc3c[nH]c4ccccc34)C(=O)N[C@H](C(N)=O)CSCCC5=O)nn1)C(=O)N1CCC[C@H]1C(=O)N[C@@H](Cc1ccc(O)cc1)C(=O)N2	Tumor necrosis factor receptor superfamily member 9/Nectin-4	reporter gene, agonist	HT-1376 coculture with reporter cells		reference: background	Emax	41 fold
Nc1nc2c(ncn2[C@@H]2O[C@H](COP(=O)(O)OP(=O)(O)OP(=O)(O)O)C[C@H]2O)c(=O)[nH]1	DNA-directed RNA polymerase subunit beta' / DNA-directed RNA polymerase subunit beta (rpoC/rpoB, Escherichia coli, UniProt P0A8T7+P0A8V2)	RNA extension, denaturing gel	Escherichia coli, elongation complex, 6-MI template	5 µM, 10 min, 25 °C		incorporation efficiency	87%
C[C@H]1O[C@@H](O[C@H]2CC[C@@]3(C)[C@@H](CC[C@]4(C)[C@@H]3C=CC3=C5CC(C)(C)CC[C@]5(CO)[C@@H](O)C[C@]34C)[C@]2(C)CO)[C@H](O)[C@@H](O[C@@H]2O[C@H](CO)[C@@H](O)[C@H](O)[C@H]2O)[C@H]1O	NAD-dependent protein deacetylase sirtuin-1 (SIRT1, Homo sapiens, UniProt Q96EB6)	binding, microscale thermophoresis		198 nM		MST normalised fluorescence	884 a.u.
O=C(C=Cc1cccc(F)c1)Nc1cc(-c2ccnc(N3CCC(O)CC3)c2)ccn1	NR4A1	SPR		10.0 µM		binding response	17.7 RU
CCCCCCCC(=O)N[C@H]1CCOC1=O	lactonase (Rhodococcus sp. BH4)	substrate, cresol purple pH indicator		pH 8.3, DMSO 5%		Km	11.8 ± 4.1 µM
COc1cc(F)ccc1-c1ncnc(Nc2cccc(C[S@](C)(=N)=O)c2)n1	Serine/threonine-protein kinase pim-3 (PIM3, Homo sapiens, UniProt Q86V86)	kinase activity		10 µM, with: 10 µM ATP		remaining activity	90%
COCCOCc1ccc(-c2cc3onc(-c4ccccc4)c3c(=O)n2C)cc1	NR4A1	reporter gene, NBRE reporter full-length		3 µM	reference: vehicle	activation	1.41 fold
Cc1nc(CSc2nc(-c3ccc(C(C)(C)C)cc3)n[nH]2)cs1	Sodium channel protein type 8 subunit alpha, C-terminal domain (SCN8A, Homo sapiens, UniProt Q9UQD0)	binder, thermal shift		25 µM		delta Tm	0.3 °C
CC(=O)N[C@H](C(=O)N1C[C@H](O)C[C@H]1C(=O)NCc1ccc(-c2scnc2C)cc1)C(C)(C)SCCCCCCNC(=O)C[C@@H]1N=C(c2ccc(Cl)cc2)c2c(sc(C)c2C)-n2c(C)nnc21	VHL/BRD3, BD1; with Elongin B/C (Homo sapiens, UniProt P40337+Q15059)	ternary complex binding, ITC		25 °C, with: VHL-ElonginB-ElonginC titrated into compound:PROTAC:Brd3^BD1 complex		−TΔS	-4.75 ± 0.02 kcal/mol
Clc1cccc(OC[C@@H]2CN(CCN3CCc4ccccc43)CCO2)c1	5-hydroxytryptamine receptor 5A (HTR5A, Homo sapiens, UniProt P47898)	radioligand binding		concentration not given, with: [3H]LSD		inhibition	5.5%
O=C1CCC(N2Cc3cc(NC(=O)c4cccc(C(F)(F)F)c4)ccc3C2=O)C(=O)N1 (stereo not drawn)	CSNK1A1/CRBN	degrader, live-cell HiBiT kinetic	HEK293 LgBiT	10 µM		degradation rate constant	1.65 h⁻¹
Nc1nnc(-c2cccc(Cl)c2Cl)c(N)n1	Sodium channel protein type 5 subunit alpha (SCN5A, Homo sapiens, UniProt Q14524)	sodium current block kinetics		25 µM		slow recovery component	42%
N[C@@H](Cc1c[nH]c2ccccc12)C(=O)O	Transcription attenuation protein MtrB (mtrB, Halalkalibacterium halodurans, UniProt Q9KCC6)	isothermal titration calorimetry		concentration not given, 25 °C, site 2 two-site model		binding stoichiometry	11.4 ± 0.2
NCc1ccccc1	Amine oxidase [copper-containing] 3 (AOC3, Homo sapiens, UniProt Q16853)	substrate turnover, SSAO/VAP-1 oxidation		concentration not given, unit not given	reference: DMSO control	enzyme activity	27.4 and 31.6 and 27.9 and 30 and 33.6 and 31.5 and 28.4 and 32.6
Nc1nc2c(ncn2[C@@H]2O[C@@H]3COP(=O)(O)O[C@H]4[C@@H](O)[C@H](n5cnc6c(=O)[nH]c(N)nc65)O[C@@H]4COP(=O)(O)O[C@H]3[C@H]2O)c(=O)[nH]1	Cell cycle histidine kinase CckA, DHp-CA domains (Caulobacter vibrioides, UniProt Q9X688)	binding, ITC		with: ADP 5 mM		ΔH	0.911 ± 0.0588 kcal/mol
